Assay results from different studies.
Each numbered part is a random draw from the data of one study; scales do not carry over between parts. Changes are numbered by the printed parent chain.

Set 1
Target: RNA binding protein fox-1 homolog 2, RRM domain, GST-SBP tag (RBFOX2, Homo sapiens, UniProt O43251-10, residues 100-194)
Method: RNA Bind-n-Seq
Form: RNA
Sample: in vitro
Tested at: 365 nM
Notes: natural RNA segment, single round, ends assumed
Reference: no-protein control
Reading: higher = stronger binding
Shared flanks, not repeated: GGGAGUUCUACAGUCCGACGAUC … UGGAAUUCUCGGGUGCCAA
Residues (chain): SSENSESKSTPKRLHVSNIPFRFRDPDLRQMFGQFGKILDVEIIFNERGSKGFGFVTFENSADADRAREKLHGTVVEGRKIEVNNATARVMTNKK
Oligonucleotide | RBNS enrichment (R)
ACCAAGACUGCAGUCAAGAAGGGAGGGUGAGCCUCACGAUCUUGGGUCUCAGGGCCUGACAUAGGGGUCUUAGCUCAGCCAUAUCCCUCUGAGGCACAGGGCGAGCAGGG | 0.288
UGCCCUGUGGUGUUUGGCACGAGGCUCCCAGCCACUUAAACCUGUUCACUUUCCAAAGAAUUCAUCUUCCAGCCAGUCCCGUUGUGUCCUUGCUUGUCUGCAUUUAUUAG | 1.07
CAUGCUGUAAGCUCAUAGAAGUCACUGUAACUGUAGUGUGUCUGCUGUUACCUAGAGGGUCUCACCUCCCCACUCUUCACAGCAAACCUGAGCAGCGCGUCCUAAGCACC | 0.264
UUUUUUAAUUGGUGUUAGAUGACAUGAUUAAUAAAAAAGGCAAGAUAUUUUCAGAAUUUGAAUUUCAGUUUUUUUUUUCUUUUGAAAUGUCCCUUUAAGAUUUUUUUAUU | 1.05
ACAGCACCUCAUGGGAUCAGAAAAGAGAAAGAUGUUGGCUCUUGUAAUAAAUGCUUUCUACCCUAUAGGUUCUAGGCUAGACAGAGUCGUCAUUUCUGUGUCCUCAAUUU | 0.359
AGGAAAAUGUACUGUUGUGUGUUUCAUUUGUGUGAUUUCGUACCAAAAAAAUGUGUUUGAACUAUAUUGUAUGUAAUUUGGAAGUCGUGUUAAUAAAACCCUGCAGUUUC | 1.73
ACUCGGGACGUCUUCAUUGAAGAUUCACUUACAAAGGAAUGUUUCACUAAAUAAAAGAAAACCAGAAUCUUCUGCUGUCUGGUCCCCUACGGAGGGAGCGGGGAGCGGGG | 0.456
GGGGGAGAAGAAAGGCUUAUCUUUAUAUUUAUACAUGCCUACAAGGAAGACAGACUCAUCCAGCGCCACCUCGGGCCCUCCCAGCACACGCAUGGUCUCUUCACUGCUGC | 2.29

Set 2
Target: DDIT3, bZIP domain (human)
Method: DHFR protein complementation
Sample: yeast
Notes: single substitutions, most at no-binding floor
Reference: wild-type JUN-FOS pair
Reading: higher = stronger binding
Starting sequence: JUN, bZIP domain (human); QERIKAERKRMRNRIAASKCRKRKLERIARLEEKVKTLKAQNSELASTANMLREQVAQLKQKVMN; partner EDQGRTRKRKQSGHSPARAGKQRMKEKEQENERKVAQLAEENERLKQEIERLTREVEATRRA
Substitution | binding fitness [natural log]
T37P | -1.33
K39Y | -0.247
M51W | -0.0278
S47C | 0.0198
L52M | -0.446
R30L | 0.0937
K39F | -0.285
L31H | -0.895

Set 3
Target: tungstate, free oxyanion
Method: microfluidic competitive inhibition
Sample: in vitro, cell-free expressed
Tested at: not given
Notes: derived from inhibition constants, unchanged parent 2230 nM
Reading: lower = stronger binding
Starting sequence: PafA, mature enzyme, eGFP fusion (Elizabethkingia meningoseptica, UniProt Q9KJX5); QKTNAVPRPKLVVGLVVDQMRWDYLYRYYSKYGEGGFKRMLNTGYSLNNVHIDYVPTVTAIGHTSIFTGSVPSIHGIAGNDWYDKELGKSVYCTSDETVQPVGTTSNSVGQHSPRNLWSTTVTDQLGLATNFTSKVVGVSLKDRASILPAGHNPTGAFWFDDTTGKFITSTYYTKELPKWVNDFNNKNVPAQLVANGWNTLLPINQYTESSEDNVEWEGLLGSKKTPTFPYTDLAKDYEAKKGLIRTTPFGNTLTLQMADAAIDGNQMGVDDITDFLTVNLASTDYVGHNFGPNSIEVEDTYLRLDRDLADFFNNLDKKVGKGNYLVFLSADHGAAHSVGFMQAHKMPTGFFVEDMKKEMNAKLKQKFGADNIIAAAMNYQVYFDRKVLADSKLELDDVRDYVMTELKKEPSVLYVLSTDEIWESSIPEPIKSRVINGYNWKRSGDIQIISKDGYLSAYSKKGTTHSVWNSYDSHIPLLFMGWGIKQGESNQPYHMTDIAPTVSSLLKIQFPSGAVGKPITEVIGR
Substitution | oxyanion analog dissociation constant
K367G | 1.94 µM
S460V | 2.96 µM
F351G | 2.27 µM
K318G | 1.95 µM
S418V | 2.2 µM
E424V | 2.45 µM
A240V | 2.33 µM
L414V | 1.69 µM
V353G | 2.03 µM
D272V | 2.47 µM
L221V | 2.29 µM
Y24G | 3.51 µM
T133V | 2.29 µM
M496G | 1.35 µM
K241G | 2.1 µM
F158V | 2.11 µM
L316G | 1.29 µM
V413G | 1.7 µM
K461V | 2.85 µM
L87G | 1.64 µM
E218G | 590 nM
R144V | > 907 µM
S30G | 2.05 µM

Set 4
Target: UDP-N-acetylglucosamine--peptide N-acetylglucosaminyltransferase 110 kDa subunit (OGT, Homo sapiens, UniProt O15294)
Chain of UniProt O15294 (whole entry, looked up): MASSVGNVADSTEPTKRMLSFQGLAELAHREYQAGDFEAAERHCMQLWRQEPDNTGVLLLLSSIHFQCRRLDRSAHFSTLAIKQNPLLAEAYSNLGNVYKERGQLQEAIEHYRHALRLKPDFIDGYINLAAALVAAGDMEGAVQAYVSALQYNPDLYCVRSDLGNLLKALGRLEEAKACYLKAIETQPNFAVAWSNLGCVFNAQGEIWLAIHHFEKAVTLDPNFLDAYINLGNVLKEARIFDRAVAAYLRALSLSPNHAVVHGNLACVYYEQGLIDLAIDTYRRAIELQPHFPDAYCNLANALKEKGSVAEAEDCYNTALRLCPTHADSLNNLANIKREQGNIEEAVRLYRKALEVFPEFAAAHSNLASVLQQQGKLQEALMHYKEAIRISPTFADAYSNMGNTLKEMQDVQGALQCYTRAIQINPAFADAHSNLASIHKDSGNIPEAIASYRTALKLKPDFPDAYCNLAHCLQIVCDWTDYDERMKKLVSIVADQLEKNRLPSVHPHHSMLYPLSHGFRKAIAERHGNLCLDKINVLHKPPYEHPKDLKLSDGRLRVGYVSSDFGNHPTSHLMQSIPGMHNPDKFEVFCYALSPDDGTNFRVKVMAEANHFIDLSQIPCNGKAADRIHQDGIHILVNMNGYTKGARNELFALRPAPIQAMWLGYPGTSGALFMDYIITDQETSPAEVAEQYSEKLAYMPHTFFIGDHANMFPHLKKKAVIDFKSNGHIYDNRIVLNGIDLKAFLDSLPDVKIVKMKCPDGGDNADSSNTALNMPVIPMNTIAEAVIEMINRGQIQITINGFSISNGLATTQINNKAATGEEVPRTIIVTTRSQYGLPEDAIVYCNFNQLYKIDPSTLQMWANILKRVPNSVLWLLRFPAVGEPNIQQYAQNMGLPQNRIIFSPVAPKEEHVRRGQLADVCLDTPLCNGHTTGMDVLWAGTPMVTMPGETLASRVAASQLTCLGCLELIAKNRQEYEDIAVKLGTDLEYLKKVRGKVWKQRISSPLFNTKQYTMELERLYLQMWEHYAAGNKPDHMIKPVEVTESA
Observed: phage display binding
Method: phage display panning NGS
Form: peptide
Reference: OGT-panned over input library
Sequence | log2 fold enrichment
QELFSHRMRFEQHHH | 6.11
TQWRMDHKHHQMHRI | 6.03
FDHRDYHHYEQFHH | 3.15
TWQWNAHHHHGMSGV | 3.68
HVTHMHLHRQSDGI | 2.97

Mixed results
Method: cross-linking MS
Sample: cell fractions
Molecule | partner | setting | cross-linked residues
PWP2 (Homo sapiens, UniProt Q15269) | IMP3 (Homo sapiens, UniProt Q9NV31) | together with: DSSO | K604 to K165
RBM22 (Homo sapiens, UniProt Q9NW64) | CWC15 (Homo sapiens, UniProt Q9P013) | together with: DMTMM | E122 to K18
REV3L (Homo sapiens, UniProt O60673) | ATP5F1A (Homo sapiens, UniProt P25705) | together with: DSSO | T2480 to K305
HNRNPDL (Homo sapiens, UniProt O14979) | EIF4B (Homo sapiens, UniProt P23588) | together with: DSSO | K142 to S88
